Experimental data pooled from the literature.
A part holds a random share of what one study measured.

Set 1
Target: Interferon regulatory factor 7, full length, phosphomimetic (IRF7, Homo sapiens, UniProt Q92985, residues 1-503, S101K/S471D/S472D/S475D/S476D/S477D/S483D/S484D/S487D)
Chain of UniProt Q92985 (whole entry, unmodified, looked up): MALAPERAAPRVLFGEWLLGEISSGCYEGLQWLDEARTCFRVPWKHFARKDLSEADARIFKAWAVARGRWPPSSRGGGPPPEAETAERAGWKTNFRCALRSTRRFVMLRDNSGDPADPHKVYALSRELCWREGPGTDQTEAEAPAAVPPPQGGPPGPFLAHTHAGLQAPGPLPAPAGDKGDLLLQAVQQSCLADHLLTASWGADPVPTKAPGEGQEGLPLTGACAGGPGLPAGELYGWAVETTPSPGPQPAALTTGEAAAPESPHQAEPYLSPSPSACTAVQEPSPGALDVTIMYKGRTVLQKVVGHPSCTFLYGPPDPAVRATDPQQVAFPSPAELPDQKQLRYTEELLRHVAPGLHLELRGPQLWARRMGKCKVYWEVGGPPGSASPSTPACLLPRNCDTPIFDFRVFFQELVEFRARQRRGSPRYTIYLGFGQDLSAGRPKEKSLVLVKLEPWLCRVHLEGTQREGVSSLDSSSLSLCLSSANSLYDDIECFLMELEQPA
Method: protein-binding microarray
Form: double-stranded DNA, one strand shown
Sample: in vitro
Tested at: 250 nM
Setting: 60-bp whole probe
With: salmon DNA 0.4 mg/ml
Baseline: random background probes
Direction: higher = stronger binding
Shared flanks, not repeated: GCCTAGCAC … GTCTTGATTCGCTTGACGCTGCTG
Sequence | log fluorescence [z-score]
GACGGACTGCTTATCCTGAAGTGCTAG | -0.453
TTAGGACTGCTGCTGCTTTAGTGCTAG | -0.648
TTAGGACTGGGGTATTGGTTAGTGCTA | -0.368
TTAGATCTCAGTCTCGATTCGTGCTAG | 4.56
TTTGGTTTGTACACCGCCTTGTGCTAG | 0.0448
TCAGGTATTTTTTTCTAACTGTGCTAG | 0.199
GTAAATCTTTTTCCCTATTAGTGCTAG | 1.79
TTAGATCTCAGCTTCGATTAGTGCTAG | 0.384
GACCGACTGGGACTGGGGACGTGCTAG | -0.155
GACGGGCTGGGTTTCGGGACGTGCTAG | 1.21
GTTCTTTTCTGTTGTCTGTGTGTGCTA | 1.85

Set 2
Target: Sal-like protein 4, full length isoform A (SALL4, Homo sapiens, UniProt Q9UJQ4, residues 1-1053)
Chain of UniProt Q9UJQ4 (whole entry, looked up): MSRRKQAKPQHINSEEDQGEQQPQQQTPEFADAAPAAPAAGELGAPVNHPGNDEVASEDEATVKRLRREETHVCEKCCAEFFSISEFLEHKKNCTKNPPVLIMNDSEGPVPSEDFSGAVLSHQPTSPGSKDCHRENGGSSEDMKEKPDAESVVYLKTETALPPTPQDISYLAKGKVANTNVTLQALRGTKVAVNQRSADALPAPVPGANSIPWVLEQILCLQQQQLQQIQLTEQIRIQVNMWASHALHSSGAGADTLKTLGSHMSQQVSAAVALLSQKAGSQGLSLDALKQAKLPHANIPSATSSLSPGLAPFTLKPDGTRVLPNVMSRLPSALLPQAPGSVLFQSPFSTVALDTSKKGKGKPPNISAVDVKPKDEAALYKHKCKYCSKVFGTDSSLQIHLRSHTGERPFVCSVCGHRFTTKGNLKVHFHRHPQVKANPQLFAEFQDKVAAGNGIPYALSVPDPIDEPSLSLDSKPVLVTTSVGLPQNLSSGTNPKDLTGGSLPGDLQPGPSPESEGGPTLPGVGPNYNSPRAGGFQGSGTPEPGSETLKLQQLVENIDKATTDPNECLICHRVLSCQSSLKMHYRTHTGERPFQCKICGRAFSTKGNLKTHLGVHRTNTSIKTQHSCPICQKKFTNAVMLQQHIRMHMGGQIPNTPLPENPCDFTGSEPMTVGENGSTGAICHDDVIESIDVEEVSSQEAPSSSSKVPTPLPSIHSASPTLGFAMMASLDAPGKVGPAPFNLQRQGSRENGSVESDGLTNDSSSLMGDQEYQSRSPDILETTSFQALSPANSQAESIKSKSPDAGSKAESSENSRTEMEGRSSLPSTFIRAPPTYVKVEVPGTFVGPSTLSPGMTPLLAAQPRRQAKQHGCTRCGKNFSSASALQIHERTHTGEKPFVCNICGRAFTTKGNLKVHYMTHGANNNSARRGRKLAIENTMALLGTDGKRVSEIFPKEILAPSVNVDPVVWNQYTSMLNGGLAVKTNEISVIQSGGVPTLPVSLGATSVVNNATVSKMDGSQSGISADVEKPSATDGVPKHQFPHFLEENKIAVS
Method: universal PBM
Form: double-stranded DNA, one strand shown
Sample: in vitro
Tested at: 600 nM
Setting: 8-mer, flanks averaged, mean of replicates
Direction: higher = stronger binding
Sequence | E-score
GGCAGCCC | -0.465
ATTCCTAG | 0.161
AGGCGTTC | -0.273
CCCCGCAC | -0.356
CATGCGAG | -0.0277
GCACAAGA | -0.0329
ATAGGCCC | -0.139
GGCTGCAC | -0.26
ACAGTACC | -0.0331

Further values, each from its own experiment
Molecule | tested on | test | test system | conditions | how to read | quantity | value
PhoQ, residues 284 288 289 292 302 303 NLSRDF | PhoP, residues 12 14 15 18 19 LWHSL (Escherichia coli, UniProt P23836) | Sort-seq, item: YFP reporter | E. coli | PhoQ-PhoP variant library, with: 10 µM Mg2+ | baseline: high Mg2+ state, higher = stronger signaling | fold induction | 21.7
DDX5 (Homo sapiens, UniProt P17844) | BRSK2 (Homo sapiens, UniProt Q8IWQ3) | cross-linking MS | cells | with: BSPNO |  | cross-linked residues | K391 to M1

Some of these lines once more (set 1):
Sequence | log fluorescence [z-score]
TTAGGACTGCTGCTGCTTTAGTGCTAG | -0.648
TTAGATCTCAGCTTCGATTAGTGCTAG | 0.384
GACGGGCTGGGTTTCGGGACGTGCTAG | 1.21
